Published values of several laboratories.
Protocols differ between the studies behind these lines. Numbers after ± are the reported error.
B1: RABH1B (Arabidopsis thaliana, UniProt O80501); chain MAPVSALAKYKLVFLGDQSVGKTSIITRFMYDKFDNTYQATIGIDFLSKTMYLEDRTVRLQLWDTAGQERFRSLIPSYIRDSSVAVIVYDVASRQSFLNTTKWIDEVRTERGSDVIVVLVGNKTDLVDKRQVSIEEAEAKARELNVMFIETSAKAGFNIKALFRKIAAALPGMETLSSTKQEDMVDVNLKSSNANASLAQQQSGGCSC
B2: aspC A106G/A218G/F210I/I29V/I33V/I68L/I71L/N30D/N64T/S135A/T100S/V136I/V375I (Escherichia coli, UniProt P00509); chain MFENITAAPADPILGLADLFRADERPGKVDLGVGVYKDETGKTPVLTSVKKAEQYLLENETTKTYLGLDGLPEFGRCTQELLFGKGSALINDKRARTAQSPGGTGGLRVAADFLAKNTSVKRVWVSNPSWPNHKAIFNSAGLEVREYAYYDAENHTLDFDALINSLNEAQAGDVVLFHGCCHNPTGIDPTLEQWQTLAQLSVEKGWLPLIDFAYQGFGRGLEEDAEGLRAFAAMHKELIVASSYSKNFGLYNERVGACTLVAADSETVDRAFSQMKAAIRANYSNPPAHGASVVATILSNDALRAIWEQELTDMRQRIQRMRQLFVNTLQEKGANRDFSFIIKQNGMFSFSGLTKEQVLRLREEFGVYAVASGRINVAGMTPDNMAPLCEAIVAVL
B3: GRHPR (Homo sapiens, UniProt Q9UBQ7); chain MRPVRLMKVFVTRRIPAEGRVALARAADCEVEQWDSDEPIPAKELERGVAGAHGLLCLLSDHVDKRILDAAGANLKVISTMSVGIDHLALDEIKKRGIRVGYTPDVLTDTTAELAVSLLLTTCRRLPEAIEEVKNGGWTSWKPLWLCGYGLTQSTVGIIGLGRIGQAIARRLKPFGVQRFLYTGRQPRPEEAAEFQAEFVSTPELAAQSDFIVVACSLTPATEGLCNKDFFQKMKETAVFINISRGDVVNQDDLYQALASGKIAAAGLDVTSPEPLPTNHPLLTLKNCVILPHIGSATHRTRNTMSLLAANNLLAGLRGEPMPSELKL
B4: enzyme (Azotobacter vinelandii, UniProt C1DN94); chain MSESPLRLDRLRDFVSALGELLDRHPDEESVLREGRSLLGELVRHDDWLPEEFAQPDPERYQQYLLHADSRQRFSVVSFVWGPGQTTPVHDHRVWGLIGMLRGAEDAQSFELGAEGLRPIGDPVRLSPGQVEAVSPRIGDIHRVFNASPDQPSISIHVYGANIGAVRRAVYLPDGSEKPFISGYSNQFLPNIWDQSKESARP
B5: NUDT3 (Homo sapiens, UniProt O95989); chain MMKLKSNQTRTYDGDGYKKRAACLCFRSESEEEVLLVSSSRHPDRWIVPGGGMEPEEEPSVAAVREVCEEAGVKGTLGRLVGIFENQERKHRTYVYVLIVTEVLEDWEDSVNIGRKREWFKIEDAIKVLQYHKPVQASYFETLRQGYSANNGTPVVATTYSVSAQSSMSGIR
B6: enzyme S252E/S281E/S285E/S287E (Schizosaccharomyces pombe, UniProt P78804); chain MSTPYEPEFQQAYKEIVGSIESSKLFEVHPELKRVLPIISIPERVLEFRVTWEDDKGNCRVNTGYRVQFNSALGPYKGGLRFHPSVNLSILKFLGFEQIFKNALTGLPMGGGKGGSDFDPKGKSDNEIRRFSQAFMRQLFRYIGPQTDVPAGDIGVTGFVVMHMFGEYKRLRNEYSGVVTGKHMLTGGSNIRPEATGYGVVYYVKHMIEHRTKGAETLKGKRVAISGSGNVAQYAALKCIQEGAIVKSISDEKGVLIAKTAEGLVPEEIHEIMALKEKRAEIADEAELCKKHHYIAGARPWTNVGEIDIALPCATQNEVSGEEAAALIKQGCRYVAEGSNMGSSAEAVEVFEKSRASGEGCWLAPGKAANAGGVAVSGLEMAQNAQFSTWTHAEVDAKLAGIMQNIFEQSTDVASKYCDSGSNNIPSLVDGANIAGFLKVATAMQAVGDWW
B7: enzyme C434A (Methanosarcina mazei, UniProt Q8PVB1); chain MSEQRSVPLREHLLALKPCRHGGLIQETSETYGIPENEILDFSANFNPLGSPFDYPENGLNFEDIIKKSCGKLLEYPDNRYVEFREAAARFVGLGVTPQSIVPGNGSTEIVRLVVESVIEKGDKVLLPWPTFGEYEMQCRITGAEPVCPSQEEVNTLPDEVLEEAKILFICNPNNPTGKLRTREELKVLAERCREHKTLLYVDEAFIELSDPSQSVADLPAENNYVFVMRSLTKDFAIPGIRMGFGIAPPAMADILNTARLSWNLGAIANNTGIALLNIEGGIDSPYLKKAREMILKEGETLKAKIDRIRGFEAGEVNVNFILVDVSKFMLNSSELTARLAARGVLVRDCVSFHGLGKNYIRVAVRTEKENDRLIAAIGDVITEWGREQAKNELQHVIEKASEEGIGGRKTCEYYPCHFEGQNCTFCFCPFYPAENEKTGGKWIQSSRGGRVWSCVDCHLVHKKEIAQKILDCLMHEGDTDELVKVAWKEVMEPIL
B8: enzyme R85Q (Methanopyrus kandleri, UniProt Q8TWG5); chain MSKVAVIGATGRVGSTAAARLALLDCVNEVTLIARPKSVDKLRGLRRDILDSLAAAQKDAEITIGCERDDYVDADVIVMTAGIPQKPGQTRLDLTKDNAAIIKKYLEGVAEENPEAIVLVVTNPVDVLTYVALKVSGLPKNRVIGLGTHLDSMRFKVLIAKHFNVHMSEVHTRIIGEHGDTMVPVISSTSVGGIPVTRMPGWEDFDVEEAVREVKEAGQRIIETWGGSQFGPAQAITNLVRTILQDERRVLTVSAYLDGEIDGIRDVCIGVPARLGREGVLEIVPIELEEDEMRAFRRSVKVVKEATREAMEAISER
Chain of UniProt P26208 (whole entry, looked up): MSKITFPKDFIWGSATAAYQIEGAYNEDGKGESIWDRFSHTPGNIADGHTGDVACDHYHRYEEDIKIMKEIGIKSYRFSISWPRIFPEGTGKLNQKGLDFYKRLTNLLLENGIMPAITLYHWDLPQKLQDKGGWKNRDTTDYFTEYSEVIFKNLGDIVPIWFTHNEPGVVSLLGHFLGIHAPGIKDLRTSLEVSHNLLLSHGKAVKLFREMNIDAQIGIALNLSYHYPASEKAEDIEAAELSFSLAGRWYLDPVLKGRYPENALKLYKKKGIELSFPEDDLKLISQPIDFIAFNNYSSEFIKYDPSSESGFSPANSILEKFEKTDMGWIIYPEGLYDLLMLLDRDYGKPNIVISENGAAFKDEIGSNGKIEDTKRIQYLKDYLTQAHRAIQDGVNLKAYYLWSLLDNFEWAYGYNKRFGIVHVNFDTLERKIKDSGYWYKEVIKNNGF
Chain of UniProt P26368 (whole entry, looked up): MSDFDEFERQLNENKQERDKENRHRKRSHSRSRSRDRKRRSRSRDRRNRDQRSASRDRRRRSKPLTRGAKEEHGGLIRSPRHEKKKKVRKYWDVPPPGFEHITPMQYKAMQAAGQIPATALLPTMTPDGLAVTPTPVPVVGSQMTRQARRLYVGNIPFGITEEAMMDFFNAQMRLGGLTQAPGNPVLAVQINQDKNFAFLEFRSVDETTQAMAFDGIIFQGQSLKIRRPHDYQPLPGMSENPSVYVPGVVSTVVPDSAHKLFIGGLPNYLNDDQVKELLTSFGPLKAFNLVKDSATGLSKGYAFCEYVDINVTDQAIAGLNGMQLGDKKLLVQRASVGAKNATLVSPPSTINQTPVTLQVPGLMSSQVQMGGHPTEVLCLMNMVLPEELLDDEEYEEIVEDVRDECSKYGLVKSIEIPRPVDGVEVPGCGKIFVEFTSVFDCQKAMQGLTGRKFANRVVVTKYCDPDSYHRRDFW
Chain of UniProt Q93UV0 (whole entry, looked up): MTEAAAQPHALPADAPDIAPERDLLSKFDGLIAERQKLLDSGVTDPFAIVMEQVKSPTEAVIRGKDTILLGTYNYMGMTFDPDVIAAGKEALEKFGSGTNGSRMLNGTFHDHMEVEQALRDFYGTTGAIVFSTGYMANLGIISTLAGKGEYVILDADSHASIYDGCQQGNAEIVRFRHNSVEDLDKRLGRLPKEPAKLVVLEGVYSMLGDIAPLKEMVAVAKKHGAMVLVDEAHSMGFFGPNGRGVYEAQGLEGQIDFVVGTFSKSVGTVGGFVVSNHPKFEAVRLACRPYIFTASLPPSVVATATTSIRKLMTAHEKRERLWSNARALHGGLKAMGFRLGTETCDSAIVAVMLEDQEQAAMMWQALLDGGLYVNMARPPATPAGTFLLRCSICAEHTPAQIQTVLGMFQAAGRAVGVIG
Chain of UniProt P06672 (whole entry, looked up): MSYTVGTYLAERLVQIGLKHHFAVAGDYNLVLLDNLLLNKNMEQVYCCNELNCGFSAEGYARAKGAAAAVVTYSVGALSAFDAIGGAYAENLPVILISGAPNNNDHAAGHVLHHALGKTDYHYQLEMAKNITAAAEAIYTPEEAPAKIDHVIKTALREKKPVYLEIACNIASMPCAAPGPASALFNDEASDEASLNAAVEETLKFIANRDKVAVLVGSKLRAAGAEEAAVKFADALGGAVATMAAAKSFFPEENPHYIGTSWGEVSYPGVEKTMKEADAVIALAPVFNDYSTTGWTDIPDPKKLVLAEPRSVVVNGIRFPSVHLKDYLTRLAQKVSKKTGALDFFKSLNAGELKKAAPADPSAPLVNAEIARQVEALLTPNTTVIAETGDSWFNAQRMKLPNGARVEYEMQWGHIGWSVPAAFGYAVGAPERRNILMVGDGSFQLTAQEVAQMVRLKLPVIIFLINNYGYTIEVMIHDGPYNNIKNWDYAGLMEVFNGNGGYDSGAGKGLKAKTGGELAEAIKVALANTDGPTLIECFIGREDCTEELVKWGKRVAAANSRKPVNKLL
Chain of UniProt P00723 (whole entry, looked up): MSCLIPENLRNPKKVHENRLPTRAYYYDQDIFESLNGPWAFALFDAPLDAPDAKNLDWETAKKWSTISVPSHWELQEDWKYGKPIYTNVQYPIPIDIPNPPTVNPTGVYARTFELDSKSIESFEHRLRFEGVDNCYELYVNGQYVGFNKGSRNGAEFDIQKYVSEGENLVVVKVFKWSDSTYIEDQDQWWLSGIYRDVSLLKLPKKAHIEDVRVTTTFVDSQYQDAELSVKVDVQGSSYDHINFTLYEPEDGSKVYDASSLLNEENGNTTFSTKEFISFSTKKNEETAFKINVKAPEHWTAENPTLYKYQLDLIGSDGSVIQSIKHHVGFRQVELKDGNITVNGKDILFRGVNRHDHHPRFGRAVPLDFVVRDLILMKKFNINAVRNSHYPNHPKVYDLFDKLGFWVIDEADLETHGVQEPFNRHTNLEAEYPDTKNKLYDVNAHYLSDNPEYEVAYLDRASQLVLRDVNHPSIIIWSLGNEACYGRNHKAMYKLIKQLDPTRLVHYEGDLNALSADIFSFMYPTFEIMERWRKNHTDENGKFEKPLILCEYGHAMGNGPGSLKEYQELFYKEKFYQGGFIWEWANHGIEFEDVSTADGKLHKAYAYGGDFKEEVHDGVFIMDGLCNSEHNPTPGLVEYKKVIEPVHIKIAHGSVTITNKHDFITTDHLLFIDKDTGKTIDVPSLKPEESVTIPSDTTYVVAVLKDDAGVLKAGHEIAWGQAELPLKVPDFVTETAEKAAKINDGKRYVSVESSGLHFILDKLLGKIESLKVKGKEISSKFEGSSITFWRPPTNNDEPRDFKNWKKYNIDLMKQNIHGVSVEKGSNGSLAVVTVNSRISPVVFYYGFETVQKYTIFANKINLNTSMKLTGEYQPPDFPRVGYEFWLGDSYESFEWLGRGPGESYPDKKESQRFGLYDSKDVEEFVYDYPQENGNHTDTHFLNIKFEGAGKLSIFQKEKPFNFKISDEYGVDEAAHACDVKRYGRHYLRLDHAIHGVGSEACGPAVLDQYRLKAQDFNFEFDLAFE
Chain of UniProt P00327 (whole entry, looked up): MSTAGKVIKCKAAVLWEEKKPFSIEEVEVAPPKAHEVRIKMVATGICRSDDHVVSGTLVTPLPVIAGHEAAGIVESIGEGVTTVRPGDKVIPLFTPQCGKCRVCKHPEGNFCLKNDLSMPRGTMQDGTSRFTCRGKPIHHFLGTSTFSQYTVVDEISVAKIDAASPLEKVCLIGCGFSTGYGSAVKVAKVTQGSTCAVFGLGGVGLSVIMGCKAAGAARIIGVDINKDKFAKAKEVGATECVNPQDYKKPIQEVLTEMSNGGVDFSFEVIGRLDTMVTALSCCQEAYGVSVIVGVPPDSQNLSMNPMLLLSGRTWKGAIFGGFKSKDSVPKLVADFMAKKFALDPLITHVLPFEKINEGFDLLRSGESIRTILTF

enzyme (Thermothielavioides terrestris, UniProt G2R650)
kcat (Oc1ccc(/C=C/c2cc(O)cc(O)c2)cc1; steady-state kinetics; pH 8, 45 °C): 0.869 ± 0.024 s⁻¹

histone H1.2 human
log2 fold change (PP6C (human); co-immunoprecipitation, IP-MS; CYB5R4 knockout cells; concentration not given; relative to: CYB5R4 knockout over parental): -0.32

B1 (RABH1B)
kcat (Nc1nc2c(ncn2[C@@H]2O[C@H](COP(=O)(O)OP(=O)(O)OP(=O)(O)O)[C@@H](O)[C@H]2O)c(=O)[nH]1; steady-state kinetics; pH 7.5, 30 °C): 0.04 s⁻¹

B2
kcat (N[C@@H](Cc1ccc(O)cc1)C(=O)O; steady-state kinetics; pH 7.5, 25 °C, together with: PLP 20 µM): 240 s⁻¹

B3 (GRHPR)
kcat (O=CC(=O)O; steady-state kinetics; pH 7.5, 37 °C, apparent, together with: NADPH 200 µM): 63 s⁻¹

bglA (Acetivibrio thermocellus, UniProt P26208)
kcat (O=[N+]([O-])c1ccc(O[C@@H]2O[C@H](CO)[C@@H](O)[C@H](O)[C@H]2O)cc1; steady-state kinetics; pH 5.5, 60 °C): 839 ± 24 s⁻¹

B4 (enzyme)
kcat (O=C(O)CCS; steady-state kinetics; pH 8, 25 °C, together with: O2): 1 ± 0.1 s⁻¹

enzyme (Equus caballus, UniProt P00327)
kcat (NC(=O)c1ccc[n+]([C@@H]2O[C@H](COP(=O)(O)OP(=O)(O)OC[C@H]3O[C@@H](n4cnc5c(N)ncnc54)[C@H](O)[C@@H]3O)[C@@H](O)[C@H]2O)c1; steady-state kinetics; pH 7, 30 °C, cofactor varied): 0.089 ± 0.0098 s⁻¹

HNL E79H/H103V/K236M/N104A/T11G (Hevea brasiliensis)
kcat (CC(=O)Oc1ccc([N+](=O)[O-])cc1; steady-state kinetics; pH 7.2, 22 °C): 0.0633 ± 0.00333 s⁻¹

enzyme (Bacteroides ovatus, UniProt A0AAN3A6N4)
kcat (O=[N+]([O-])c1ccc(O[C@H]2O[C@H](CO)[C@@H](O)[C@H](O)[C@H]2O)cc1; steady-state kinetics; pH 6.6): 21.5 ± 1.2 s⁻¹

acsA I222V/L233M (Pseudomonas chlororaphis)
kcat (O=C(O)CCC(F)(F)F; steady-state kinetics; pH 7): 0.0367 ± 0.00333 s⁻¹

enzyme (Pseudanabaena biceps, UniProt L8N0N6)
kcat (NC(=O)c1ccc[n+]([C@@H]2O[C@H](COP(=O)(O)O)[C@@H](O)[C@H]2O)c1; steady-state kinetics; pH 7.4, 30 °C, apparent, cofactor varied): 3.02 ± 0.01 s⁻¹

enzyme (Streptomyces avermitilis, UniProt Q82IV1)
kcat (CC(C)=CCC/C(C)=C/CC/C(C)=C/CO[P@@](=O)(O)OP(=O)(O)O; steady-state kinetics; pH 7, 30 °C, refolded from inclusion bodies, together with: Mg2+): 2.58e-05 ± 6e-07 s⁻¹

B5 (NUDT3)
kcat (Nc1ncnc2c1ncn2[C@@H]1O[C@H](COP(=O)(O)OP(=O)(O)OP(=O)(O)OP(=O)(O)OP(=O)(O)OC[C@H]2O[C@@H](n3cnc4c(N)ncnc43)[C@H](O)[C@@H]2O)[C@@H](O)[C@H]1O; steady-state kinetics; together with: Mg2+): 0.0004 ± 0.00032 s⁻¹

pdc (Zymomonas mobilis, UniProt P06672)
kcat (CC(=O)C(=O)O; steady-state kinetics; pH 6, 30 °C): 150 ± 5 s⁻¹

spt (Sphingomonas paucimobilis, UniProt Q93UV0)
kcat (CCCCCCCCCCCC(=O)SCCNC(=O)CCNC(=O)[C@H](O)C(C)(C)COP(=O)(O)OP(=O)(O)OC[C@H]1O[C@@H](n2cnc3c(N)ncnc32)[C@H](O)[C@@H]1OP(=O)(O)O; steady-state kinetics; together with: PLP): 0.11 ± 0.01 s⁻¹

B6 (enzyme S252E/S281E/S285E/S287E)
kcat (NC(=O)c1ccc[n+]([C@@H]2O[C@H](COP(=O)(O)OP(=O)(O)OC[C@H]3O[C@@H](n4cnc5c(N)ncnc54)[C@H](OP(=O)(O)O)[C@@H]3O)[C@@H](O)[C@H]2O)c1; steady-state kinetics; pH 7, 30 °C, apparent): 1.8 s⁻¹

B7 (enzyme C434A)
kcat (Nc1ncnc2c1ncn2[C@@H]1O[C@H](COP(=O)(O)OP(=O)(O)OP(=O)(O)O)[C@@H](O)[C@H]1O; steady-state kinetics; pH 8.5, 25 °C, apparent, anoxic, together with: L-Thr 10 mM): 0.127 ± 0.004 s⁻¹

B8 (enzyme R85Q)
kcat (CC(=O)C(=O)O; steady-state kinetics; pH 6, 60 °C, together with: 0.3 mM NADH): 60 s⁻¹

CUUCUCUCU (ssRNA)
Kd (U2AF2 148-342 (Homo sapiens, UniProt P26368); sequencing of bound RNA; RNA; motif only): 0.3 µM

LAC4 (Kluyveromyces lactis, UniProt P00723)
kcat (O=[N+]([O-])c1ccccc1O[C@@H]1O[C@H](CO)[C@H](O)[C@H](O)[C@H]1O; steady-state kinetics; pH 6.5, 30 °C): 488 ± 12.7 s⁻¹

A few entries again:
pdc (Zymomonas mobilis, UniProt P06672)
kcat (CC(=O)C(=O)O; steady-state kinetics; pH 6, 30 °C): 150 ± 5 s⁻¹

spt (Sphingomonas paucimobilis, UniProt Q93UV0)
kcat (CCCCCCCCCCCC(=O)SCCNC(=O)CCNC(=O)[C@H](O)C(C)(C)COP(=O)(O)OP(=O)(O)OC[C@H]1O[C@@H](n2cnc3c(N)ncnc32)[C@H](O)[C@@H]1OP(=O)(O)O; steady-state kinetics; together with: PLP): 0.11 ± 0.01 s⁻¹
